{"data": "Measurements from different studies", "note": "Numbered parts are unrelated; each lists some results of a single study."}
{"data": "Set 1", "target": "RING finger protein unkempt homolog, zinc fingers 1-6, GST-SBP tag (UNK, Homo sapiens, UniProt Q9C0B0, residues 30-357)", "technique": "RNA Bind-n-Seq", "form": "RNA", "sample": "in vitro", "tested at": "not given", "setting": "RNA with constant flanks, human and mouse sites, ends assumed", "relative to": "input RNA pool", "direction": "higher = stronger binding", "shared flanks, not repeated": "GGGAGUUCUACAGUCCGACGAUC … CAACAGAGGAUUGAGCAUCA", "chain of UniProt Q9C0B0 (30-357, looked up)": "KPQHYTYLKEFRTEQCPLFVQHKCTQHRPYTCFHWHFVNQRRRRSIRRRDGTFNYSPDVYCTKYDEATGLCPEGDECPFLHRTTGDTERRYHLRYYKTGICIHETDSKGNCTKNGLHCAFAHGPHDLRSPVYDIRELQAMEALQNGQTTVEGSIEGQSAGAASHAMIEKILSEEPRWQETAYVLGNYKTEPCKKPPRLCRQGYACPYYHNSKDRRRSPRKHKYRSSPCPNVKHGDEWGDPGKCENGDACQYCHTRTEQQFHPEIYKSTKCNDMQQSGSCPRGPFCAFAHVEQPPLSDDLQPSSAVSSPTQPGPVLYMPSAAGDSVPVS"}
{"Strand": "UAUGUAUAUCUCAAGCAAACCAAAAUGCAAUCUUCUGCUUUGUUCUGUUCUAAAUCAUUGUAGUUAUAUCUUUCUGAAACCAUUUUGCAUUUAGUUGAAAUUGUCAGUAUUUAUGCUUUU", "bound/input enrichment [ratio]": 0.584}
{"Strand": "GGCCCAGCUGUGGCUGAUAGGGUGGCGCAGAAGCAUGGCUUCCACAACCUGGGCCAGAUCUUCGGUGACUAUUACCACUUCUGGCACAGAGCAGUGACAAAGCGGUCCCUGUCGCCUCAC", "bound/input enrichment [ratio]": 0.132}
{"Strand": "ACACUUUGCGGUAGAUUAAGGAAUAUACUGCAUAUUUCUUUUUUUAAACUCGGGAUAUUGAACUUCAGAAAACAAAUAUUAGCACAAAACACUAAAAUAGUGUUAACAAAAGGAGAUAUU", "bound/input enrichment [ratio]": 1.45}
{"Strand": "GCUUUUUAUCUUCUAGCAUUUUUUUACUACCUAUAUGGCAUGAUCUAUGUUUUGGUGAGCUCUUAGAACAACACACAGAAGAAUUGGUCCAGUUAAGUGCAUGCAAAAAGCCACCAAAUG", "bound/input enrichment [ratio]": 4.38}
{"Strand": "UCAGGAGGAAAGGCAUCCCAGACAGUUUUGAAGUUUUCAAAGACUGGCUCUGCUGUUAAGAAGUUGUACUUAAAGCGGAGGAGCUAAGCCACCUGCCAAAAUGUGCAAAGGACUUGCAGC", "bound/input enrichment [ratio]": 0.122}
{"Strand": "GUCUGACCGCGGCGUCGGGACCUGGUUUCCGGGCAUGAGCUGAGAGCACCACGCCGAGGCCACGAGUAUUUCAUAGACAUUGAUGGAAGCAGAAACCAAAACUCUUCCCCUGGAGAAUGC", "bound/input enrichment [ratio]": 0.0683}
{"Strand": "AUUGAGUAUAAACUCAUCUACUUCAAAUUUAUUUUAUAACACAACCUAAGAUACUCAAGAUAAUUAUUUAAUGGUUAGCUCUUAAGUUGAAUUGGUCUACAUAAUGCGUGGGAAGAAAAC", "bound/input enrichment [ratio]": 0.963}
{"Strand": "CAUUGUGGAAUUCCCUAGCAAUUUAUUUAGACUUAAUUUUUUAAAUUCAAGCUUACUGUAUUAGUCAUUUUUAGCCCAUAAUUAAAACAUGAUCACUUUUACACAGGUGUAGUAUGGUGC", "bound/input enrichment [ratio]": 818}
{"Strand": "AGACCAGAAACCAUGUUGUGAUUUCUUUUUAUCUUAGAAAACAUUUCUAUUUACAAUAAAUAGUUACUAUGUAAAUAAUGUACAUAUGUAUUAAUUUCUUCAGUGUUAUACAAUGUAUAU", "bound/input enrichment [ratio]": 4.72}
{"Strand": "UGUGGCCUUUCUGAGGAGAAAGCUGUGGAGAAGUUUGGGGAAGAAAAUAUUGAGGUUUACCAUAGUUACUUUUGGCCAUUGGAAUGGACGAUUCCGUCAAGAGAUAACAACAAAUGUUAU", "bound/input enrichment [ratio]": 0.395}
{"Strand": "CCCGGCCCCUUCGGGUCCCUGCAGGGCGCUUUUCAGCCUAAGGUGUCUGACCCGUACCGGGCGGUGGUCAAGGUGAGCACGUGUUGGGAAGGCCCGUGGCAAGGGAGGACUCUGGUGCCC", "bound/input enrichment [ratio]": 0.118}
{"data": "Set 2", "target": "RNA binding protein fox-1 homolog 2, RRM domain, GST-SBP tag (RBFOX2, Homo sapiens, UniProt O43251-10, residues 100-194)", "technique": "RNA Bind-n-Seq", "form": "RNA", "sample": "in vitro", "tested at": "365 nM", "setting": "natural RNA segment, single round, ends assumed", "relative to": "no-protein control", "direction": "higher = stronger binding", "shared flanks, not repeated": "GGGAGUUCUACAGUCCGACGAUC … UGGAAUUCUCGGGUGCCAA"}
{"Strand": "AGUUUGUCAAAUUACUCUUUGGAAUUGAGCCAAAAUCCUAGAGUUGAGUUUUUAUUCUUCCUUCCUUCCAUACAACAAAACAAGUCCAUAGCCUAUGACCCAAGACUGUU", "RBNS enrichment (R)": 0.705}
{"Strand": "GCCCUCCGCUCUAGUCCUAGCAGGGCAGCCAUGAGCCGAGGGGAGGUGGAGAAGGCUUGUGCAGGUACAAACGACCUCAAGGACUGUGGCCUGCAACUGGAGACUGCUAA", "RBNS enrichment (R)": 0.479}
{"Strand": "UCUGUCUGUCUCUACAUGGAUGGACUGAAUAAGAAUGUAAAUAAUAUUUAUUGCAAAGCAAGCCUGGUCAUACUUGCUGCUUGAGAAGCUGAGGCAGGAGGAUCAUGAAU", "RBNS enrichment (R)": 2.17}
{"Strand": "UAUUUUCUUCUCCUCCCCUCCUCUUCCUCCUUUCUCUUUGCAUUCAAGAUUAUGAAACUUUGCUGUGGGCCCUGCCUUUCCUUCACUUCUUCCUGUUCACCCUGGUGGUG", "RBNS enrichment (R)": 2.42}
{"Strand": "GGAGUGAUUCCUAGAAGACGGAUCAGUCUAGUCUGGCAGUCAAGGCUCAGGAGUUUGGGAGAGGGGCAGGAGAAGGAUAAGAAAGCCUGGGUUUUAGGCUUGCCUGGGAA", "RBNS enrichment (R)": 0.879}
{"Strand": "GCUAGAUGCACCAAGCAUGGCCCAAAUUGGUUCUUUUUUAAAUCCCAUGGGGGAAGUGCAGGCUCCUUCCUGUGGUGCCUCUUUAUAGCCUCACCACCAUGCUAACACUG", "RBNS enrichment (R)": 1.04}
{"Strand": "CCUAAGGCAUCAUGCCUCAGCCCCUUGCACUGUAUGUUCCUAUAUGUCUACUUGUAUUGAUCCUUUGGGUCUCCUGGCCCAUUGCUAGGCACUGUUUGUGUGUUAUUAAU", "RBNS enrichment (R)": 1.18}
{"Strand": "CUACCUGGCCUGUUGGAGGAAAGGUUUGCCAAUCUCUGUUUUAUACCAUUAACUAUGAGAUUAACAAAAACUUUUACCUUUGUGCAGAAGGUUAAAAAAAAAAAAACAUG", "RBNS enrichment (R)": 0.452}
{"Strand": "CCCUGUGAGGUUUCAGGCACUAAAACUCUAUGUGGGGAAGGGAGGGGUUACUCCUCCUCCAAUGGGACUCAAGGACUUGACCUCCAGGAGUAGGCCCCUGGUCAGAAGUG", "RBNS enrichment (R)": 0.567}
{"Strand": "GGCAUCGGAGAUGGGUUAACAUCUCAAAACAAAAUAGCCUACAAAUGUUCCUUGUGGGAGACUUUGGCGAGGGUCUGUGGGUAAAAGCACCAGGGGGUUAAUCUUGGCUC", "RBNS enrichment (R)": 0.567}
{"Strand": "AGGCACAGGAGGUCAGAGGUGAUGCUGAGGACAGGCCAGAACUCAUCCCAGCACCAGUCUGCUUGAGCCCUGCACUCACUGCUCGGGAAUGGCAAGCUCCCAGAUUCCUU", "RBNS enrichment (R)": 0.684}
{"data": "Set 3", "target": "Centromere-binding protein 1, full length, N-terminal tag (CBF1, Saccharomyces cerevisiae, UniProt P17106, residues 1-351)", "technique": "protein-binding microarray", "form": "double-stranded DNA, one strand shown", "sample": "in vitro", "tested at": "0.8 µM", "setting": "whole 60-bp probe, no competitor", "direction": "higher = stronger binding", "shared flanks, not repeated": "… GTCTTGATTCGCTTGACGCTGCTG", "chain of UniProt P17106 (whole entry, looked up)": "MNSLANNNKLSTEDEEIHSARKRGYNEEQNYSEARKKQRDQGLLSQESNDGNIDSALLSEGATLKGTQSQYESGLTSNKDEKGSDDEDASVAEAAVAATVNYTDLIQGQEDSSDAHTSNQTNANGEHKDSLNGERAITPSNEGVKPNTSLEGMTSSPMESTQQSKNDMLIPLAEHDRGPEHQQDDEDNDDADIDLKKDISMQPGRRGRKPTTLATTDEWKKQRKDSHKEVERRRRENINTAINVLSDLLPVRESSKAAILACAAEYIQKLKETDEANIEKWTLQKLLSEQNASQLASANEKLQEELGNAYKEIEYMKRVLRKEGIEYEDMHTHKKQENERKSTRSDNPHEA"}
{"Strand": "GAATGGCAGCTCTATCACGAAGCGATGGAAAAATAG", "fluorescence intensity [a.u.]": 545}
{"Strand": "GAAATGCTTTTGGGTTATCACGTTCAACAAGGATAG", "fluorescence intensity [a.u.]": 995}
{"Strand": "GAAGTGCCAAAAACGGACGTCACAAATTACTGCTAG", "fluorescence intensity [a.u.]": 540}
{"Strand": "CTATTCTATAGGCATCACCTACTGCATCACCTATTC", "fluorescence intensity [a.u.]": 539}
{"Strand": "CTACAAGGGCATTGTCATGTGCACGCATAATAATTC", "fluorescence intensity [a.u.]": 1670}
{"Strand": "GAAGGTTTGCTCTACGACGTGGTTGGATTATATTAG", "fluorescence intensity [a.u.]": 501}
{"Strand": "GAAGTGCATTGTGTGATCATGCAGCTACCATAGTAG", "fluorescence intensity [a.u.]": 635}
{"Strand": "GAAATAATAAATACAAACGTGGGAAGTCGGAGATAG", "fluorescence intensity [a.u.]": 630}
{"Strand": "TGTACGAAGCTATATCACGGGAGTATAGTAGTTAGG", "fluorescence intensity [a.u.]": 889}
{"Strand": "CTAATTACTATTATACATGTGATATCAGAACGGTTC", "fluorescence intensity [a.u.]": 1970}
{"Strand": "GAAGTAATCATACACGTGAAAAGCACGTGAACATAG", "fluorescence intensity [a.u.]": 13800}
{"Strand": "CTATTTCGTTCGTGCAGCGTGATTAACCGAGCCTTC", "fluorescence intensity [a.u.]": 842}
{"Strand": "GAAACAAAACTATTTAAGGTGACTTCTCCGTATTAG", "fluorescence intensity [a.u.]": 502}
{"data": "Other studies, line by line"}
{"Molecule": "PhoQ, residues 284 288 289 292 302 303 HSSMNL", "target": "PhoP, residues 12 14 15 18 19 SYFRT (Escherichia coli, UniProt P23836)", "assay": "Sort-seq, item: YFP reporter", "test system": "E. coli", "setting": "PhoQ-PhoP variant library, with: 10 µM Mg2+", "how to read": "relative to: high Mg2+ state, higher = stronger signaling", "quantity": "fold induction", "result": 0.985}
{"note": "Excerpt of the above (set 1):"}
{"Strand": "ACACUUUGCGGUAGAUUAAGGAAUAUACUGCAUAUUUCUUUUUUUAAACUCGGGAUAUUGAACUUCAGAAAACAAAUAUUAGCACAAAACACUAAAAUAGUGUUAACAAAAGGAGAUAUU", "bound/input enrichment [ratio]": 1.45}
{"Strand": "GCUUUUUAUCUUCUAGCAUUUUUUUACUACCUAUAUGGCAUGAUCUAUGUUUUGGUGAGCUCUUAGAACAACACACAGAAGAAUUGGUCCAGUUAAGUGCAUGCAAAAAGCCACCAAAUG", "bound/input enrichment [ratio]": 4.38}
{"Strand": "UCAGGAGGAAAGGCAUCCCAGACAGUUUUGAAGUUUUCAAAGACUGGCUCUGCUGUUAAGAAGUUGUACUUAAAGCGGAGGAGCUAAGCCACCUGCCAAAAUGUGCAAAGGACUUGCAGC", "bound/input enrichment [ratio]": 0.122}
{"Strand": "GUCUGACCGCGGCGUCGGGACCUGGUUUCCGGGCAUGAGCUGAGAGCACCACGCCGAGGCCACGAGUAUUUCAUAGACAUUGAUGGAAGCAGAAACCAAAACUCUUCCCCUGGAGAAUGC", "bound/input enrichment [ratio]": 0.0683}
{"Strand": "AUUGAGUAUAAACUCAUCUACUUCAAAUUUAUUUUAUAACACAACCUAAGAUACUCAAGAUAAUUAUUUAAUGGUUAGCUCUUAAGUUGAAUUGGUCUACAUAAUGCGUGGGAAGAAAAC", "bound/input enrichment [ratio]": 0.963}
{"Strand": "CAUUGUGGAAUUCCCUAGCAAUUUAUUUAGACUUAAUUUUUUAAAUUCAAGCUUACUGUAUUAGUCAUUUUUAGCCCAUAAUUAAAACAUGAUCACUUUUACACAGGUGUAGUAUGGUGC", "bound/input enrichment [ratio]": 818}
